Experimental data gathered from unrelated publications.
Parts stem from different laboratories: compare values within a part only. Changes are numbered by the printed parent chain.

Study 1
Target: Interferon regulatory factor 5, full length, phosphomimetic (IRF5, Homo sapiens, UniProt Q13568-2, residues 1-514, S451D/S453D/S456D/S462D)
Technique: protein-binding microarray
Form: double-stranded DNA, one strand shown
Medium: in vitro
Tested at: 940 nM top
Notes: 60-bp whole probe
Together with: salmon DNA 0.4 mg/ml
Relative to: random background probes
Reading: higher = stronger binding
Constant ends, left off below: GCCTAGCAC … GTCTTGATTCGCTTGACGCTGCTG
| Strand | fitted relative affinity |
| --- | --- |
| GACGGTATCGACTCTGGGGACGTGCTA | 3.71 z-score |
| GTTCTTATCCTTCCCCTCTAGTGCTAG | 1.62 z-score |
| TTAGGACTGGGGACTGGGTTGGTGCTA | -0.258 z-score |
| GCCGGTTTCGGGACTGGGGACGTGCTA | 7.35 z-score |
| GTCGGTTTCGGTTTCGGGACGTGCTAG | 17.6 z-score |
| GACGGTTCCCTTTTCCGGACGTGCTAG | 1.04 z-score |
| TTAGGTTTCGACTATCGGTTCGTGCTA | 9.36 z-score |
| TCAGTTTTTACTTTCTGACTGTGCTAG | 1.47 z-score |
| GACGGACTGCCTATCCTGACGTGCTAG | -0.438 z-score |
| TCACATTGAGATTTCCAACTGTGCTAG | -0.0181 z-score |

Study 2
Target: ABI1, truncated, D143A, DHFR fusion (Arabidopsis thaliana)
Technique: DHFR PCA, deep sequencing
Medium: yeast
Notes: methotrexate growth selection, single substitutions
Together with: (+)-ABA 1.4 µM
Relative to: wild-type fitted maximum
Reading: higher = stronger binding
Starting sequence: PYL1, truncated, DHFR fusion (Arabidopsis thaliana); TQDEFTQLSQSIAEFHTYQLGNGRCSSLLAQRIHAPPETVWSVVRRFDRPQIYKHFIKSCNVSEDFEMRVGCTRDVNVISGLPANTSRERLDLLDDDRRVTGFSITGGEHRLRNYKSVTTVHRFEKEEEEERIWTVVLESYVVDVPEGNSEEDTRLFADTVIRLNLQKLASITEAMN; partner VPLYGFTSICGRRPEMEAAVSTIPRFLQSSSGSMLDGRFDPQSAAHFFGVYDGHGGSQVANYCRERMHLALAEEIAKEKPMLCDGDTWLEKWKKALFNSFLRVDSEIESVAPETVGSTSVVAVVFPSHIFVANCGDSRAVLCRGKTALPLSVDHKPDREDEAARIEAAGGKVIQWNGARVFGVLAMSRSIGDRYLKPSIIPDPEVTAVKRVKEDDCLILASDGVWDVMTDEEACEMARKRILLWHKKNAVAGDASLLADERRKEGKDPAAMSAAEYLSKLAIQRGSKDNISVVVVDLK
| Change | relative binding score [%] |
| --- | --- |
| T120Q | -0.214 |
| Q19W | 15.9 |
| S117C | 0.915 |
| R123H | 59.7 |
| Y53P | -4.4 |
| S26R | 0.36 |
| C72S | 51.9 |
| A35Y | -23.5 |
| E38D | 56.3 |
| G21E | 59.3 |
| E14A | 15.7 |
| S87I | 31.9 |
| K168L | 11.3 |
| D65E | 44.8 |
| A30C | 52.8 |
| H122Q | -5.2 |

Study 3
Target: CCND3, cyclin fold, Cln2 fusion (human)
Technique: yeast growth competition, sequencing
Medium: yeast
Notes: weak parent motif
Relative to: not given
Reading: higher = stronger binding
Starting sequence: ASZ1 docking peptide (human); GFGFLLFICKLTF; partner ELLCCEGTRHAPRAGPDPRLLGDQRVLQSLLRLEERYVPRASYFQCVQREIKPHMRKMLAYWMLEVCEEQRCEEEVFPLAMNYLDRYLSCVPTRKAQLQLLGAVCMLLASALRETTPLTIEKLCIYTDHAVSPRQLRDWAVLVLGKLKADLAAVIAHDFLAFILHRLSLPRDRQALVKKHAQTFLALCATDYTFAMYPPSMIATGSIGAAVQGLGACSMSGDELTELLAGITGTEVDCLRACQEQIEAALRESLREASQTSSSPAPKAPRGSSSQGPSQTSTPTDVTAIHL
| Change | normalised enrichment score |
| --- | --- |
| GFGFLLFICKLAF [T12A] | -0.122 |
| GAGFLLFICKLTF [F2A] | -0.0606 |
| GFGFLLFICKATF [L11A] | 0.216 |
| GFGFLLFICKLTA [F13A] | 0.405 |
| GFGFLAFICKLTF [L6A] | -0.343 |
| GFGFLLFICALTF [K10A] | 0.0341 |

Mixed results
| Molecule | target | assay | system | setting | scale | endpoint | value |
| --- | --- | --- | --- | --- | --- | --- | --- |
| PhoQ, residues 284 288 289 292 302 303 TLASMF | PhoP, residues 12 14 15 18 19 GQALL (Escherichia coli, UniProt P23836) | Sort-seq, item: YFP reporter | E. coli | PhoQ-PhoP variant library, together with: 10 µM Mg2+ | relative to: high Mg2+ state, higher = stronger signaling | fold induction | 6.37 |

For quick reference, copied from above (study 3):
| Change | normalised enrichment score |
| --- | --- |
| GFGFLLFICKATF [L11A] | 0.216 |
| GFGFLLFICKLTA [F13A] | 0.405 |
| GFGFLAFICKLTF [L6A] | -0.343 |
| GFGFLLFICALTF [K10A] | 0.0341 |
